Measurements gathered from unrelated publications.
Numbers after ± are the reported error.

Compound | technique | matrix | time | pH | temperature | setting | solubility
CNC(=O)c1ccccc1Nc1cc(Nc2ccc(N3CCOCC3)cc2OC)ncc1C(F)(F)F |  | dimethylacetamide | 24 h |  | 25 °C |  | > 47000 µg/mL
Cn1cncc1[C@@](N)(c1ccc(Cl)cc1)c1ccc2c(c1)c(-c1cccc(Cl)c1)cc(=O)n2C |  | simulated gastric fluid |  |  | 37 °C | final pH 2.99 | 2920 ± 141 µg/mL
O=C(Nc1ccc(OC(F)(F)F)cc1)N[C@H]1CC[C@H](Oc2ccc(C(=O)O)cc2)CC1 |  | deionised water | 0.5 min | pH 6.6 | 37 °C | non-sink dissolution | 0.0398 ± 0.0001 µg/mL
CC1(C)OC[C@H](C2CCCCC2)N[C@@H]1c1ccc(Cl)c(Cl)c1 | shake-flask, LC-HRMS | aqueous buffer | 16 h | pH 6.8 |  |  | < 4 µM
O=C(NC1(C(F)(F)F)CC1)c1ccccc1 |  | PBS | 2 h | pH 7.4 | 25 °C | 2% DMSO | 397 µM
CC(C)Nc1ccnc(Nc2cccc(-c3cc[nH]n3)c2)n1 |  | citrate phosphate-buffered saline | 18 h | pH 7.4 |  | 1% DMSO | 66.7 ± 2 µM
Cc1cnc(Nc2ccnc3ccc(-c4ccc(S(=O)(=O)N5CCOCC5)cc4)cc23)s1 | thermodynamic | aqueous medium |  |  |  |  | 21 µM
CC(C)(C)c1ccc([C@@H]2COC[C@H](C3CCCCC3)N2)cc1 | shake-flask, LC-HRMS | aqueous buffer | 16 h | pH 6.8 |  |  | < 4 µM
COc1ccc2cc(C(=O)Nc3ccc4c(c3)CN(C3CCC(=O)NC3=O)C4=O)ccc2c1 (centres unmarked) |  | DMSO |  |  |  |  | ≤ 30000 µM
C[C@H]1OC[C@@H](C2CCCC2)N[C@@H]1c1cccc(Cl)c1 | shake-flask, LC-HRMS | aqueous buffer | 16 h | pH 6.8 |  |  | < 4 µM
Cc1c(NC(=O)C2CCCN2S(=O)(=O)c2ccccc2)c(=O)n(-c2ccccc2)n1C (centres unmarked) |  | aqueous buffer |  | pH 7.4 |  |  | 169 µg/mL
Fc1ccc([C@@H]2COC[C@]3(CC[C@H](c4ccccc4)CC3)N2)c(Cl)c1 | shake-flask, LC-HRMS | aqueous buffer | 16 h | pH 6.8 |  |  | < 4 µM
COc1cc(OC)c2c(=O)c(OC)c(-c3ccc(OC)c(OC)c3)oc2c1 | HPLC | ethanol:butylene glycol 75:25 |  |  |  |  | 13260 ± 56 ppm
CC1CCN(S(=O)(=O)c2ccc(Cl)c(C(=O)Nc3ccc(C(=O)O)cc3)c2)CC1 |  | aqueous buffer |  | pH 7.4 |  |  | 563 µg/mL
O=S(=O)(c1ccc(-c2ccc3nccc(Nc4ccncc4)c3c2)cc1)N1CCOCC1 | thermodynamic | aqueous medium |  |  |  |  | 7 µM
CCOC(=O)N1C[C@@H](c2ccc(Cl)cc2)N[C@H](c2ccc(C(C)(C)C)cc2)C1 | shake-flask, LC-HRMS | aqueous buffer | 16 h | pH 6.8 |  |  | < 4 µM
Nc1nc2c(ncn2COCCO)c(=O)[nH]1 |  | methanol + water | 24 h |  | 298.2 K | methanol mass fraction 0.9 | 1100 µg/mL
COC1=CC(c2ccc[nH]2)=N/C1=C\c1cc(Cc2ccc(OC(F)(F)F)cc2)c(C)[nH]1.Cl |  | potassium phosphate buffer | 1.5 h | pH 7.4 | room temperature |  | < 3.13 µM
COc1cc(OC)c2c(=O)c(OC)c(-c3ccccc3)oc2c1 | HPLC | ethanol:butylene glycol 75:25 |  |  |  |  | 2368 ± 20 ppm
CCOC(=O)N1C[C@@H](C2CCOCC2)N[C@@H](C(C)(C)C)C1 | shake-flask, LC-HRMS | aqueous buffer | 16 h | pH 6.8 |  |  | > 750 µM
COc1ccc(-c2cc(=O)c3c(OC)cc(OC)cc3o2)cc1 | HPLC | ethanol:butylene glycol 50:50 |  |  |  |  | 13120 ± 33 ppm
CONc1ccnc(Nc2cccc(-c3cccnc3)c2)n1 |  | citrate phosphate-buffered saline | 18 h | pH 7.4 |  | 1% DMSO | 57.7 ± 0.8 µM
COc1cccc([C@@H]2COC[C@@](C)(C3CCOCC3)N2)c1 | shake-flask, LC-HRMS | aqueous buffer | 16 h | pH 6.8 |  |  | > 750 µM
O=C(Nc1cccc2[nH]ccc12)c1ccc(F)cc1 | kinetic solubility | PBS with NaCl, SDS, ThT |  | pH 7.4 |  |  | ≥ 300 µM
CC(C)Nc1ccnc(Nc2cccc(-c3ccccc3)c2)n1 |  | citrate phosphate-buffered saline | 18 h | pH 7.4 |  | 1% DMSO | 0.38 ± 0.1 µM

Compound | technique | matrix | time | pH | temperature | setting | solubility
O=S(=O)(c1ccc(-c2ccc3nccc(Nc4cncs4)c3c2)cc1)N1CCOCC1 | thermodynamic | aqueous medium |  |  |  |  | 13 µM
Cc1nc(C)c(-c2ccnc(Nc3ccc(F)cc3)n2)s1 |  | aqueous buffer |  | pH 7.4 |  |  | < 1.61 µg/mL
Cc1[nH]c(/C=C2\N=C(c3ccc[nH]3)C3=C2OCCO3)cc1Cc1ccc(OC(F)(F)F)cc1.Cl |  | potassium phosphate buffer | 1.5 h | pH 7.4 | room temperature |  | 48.8 µM
COCC(C)Nc1ccnc(Nc2cccc(-c3cccnc3)c2)n1 (centres unmarked) |  | citrate phosphate-buffered saline | 18 h | pH 7.4 |  | 1% DMSO | 59.1 ± 3.6 µM
CCCS(=O)(=O)Nc1ccc(F)c(C(=O)c2cn(C(=O)OCc3cc(P(=O)(O)O)ccc3OP(=O)(O)O)c3ncc(-c4ccc(Cl)cc4)cc23)c1F | HPLC, saturated solution | HBSS | 30 s | pH 6.5 |  |  | 37000 µg/mL
c1ccc(CSc2ncnc3nc[nH]c23)cc1 | UV absorbance | culture medium |  |  |  | stock diluted to 0.025 mM | 25 µM
NC[C@H](NC(=O)OCC1c2ccccc2-c2ccccc21)C(=O)N[C@H](Cc1c[nH]c2ccccc12)C(=O)N[C@@H](CCCCNC(=O)CN1CCN(CC(=O)O)CCN(CC(=O)O)CCN(CC(=O)O)CC1)C(N)=O |  | aqueous buffer |  |  |  |  | < 5000 µM
NC(=O)N1c2ccccc2C=Cc2ccccc21 | LC-MS | DPBS | 18 h |  |  |  | 64.3 ± 1.5 µM
COc1cc(OC)c2c(=O)cc(-c3ccccc3)oc2c1 | HPLC | ethanol:butylene glycol 50:50 |  |  |  |  | 13860 ± 31 ppm
CN(C)CCNS(=O)(=O)c1ccc(N/C=C2\C(=O)Nc3ccccc32)cc1 |  | aqueous buffer |  | pH 7.4 |  |  | 6.46 µg/mL
Cc1c(N(C)C)ccc2cc(C(=O)NS(=O)(=O)c3ccccc3-c3ccccc3)oc12 |  | PBS with 1% DMSO | 24 h | pH 6.5 |  |  | 312 µg/mL
O=C(NCCN1CCCC1)c1cc(-c2ccc(CN3CCOCC3)cc2)nc2ccc(F)cc12 |  | FeSSIF | 4 h | pH 5.0 | 37 °C |  | > 6490 µM
N=C(CCl)NCCC[C@H](NC(=O)c1ccc2ccc(O)cc2c1)C(=O)NCc1ccccc1 |  | water |  |  |  |  | > 20000 µg/mL
Clc1nc(SCc2ccccc2)c2[nH]cnc2n1 | UV absorbance | culture medium |  |  |  | stock diluted to 0.20 mM | 40 µM
COc1cc(-c2nnc(SCC(N)=O)n2C)cc(OC)c1OC |  | aqueous buffer |  | pH 7.4 |  |  | > 3760 µg/mL
COc1cc(C(=O)[O-])cc(COC(=O)N(C)C(=O)c2ccc(N3C(=S)N(c4ccc(C#N)c(C(F)(F)F)c4)C(=O)C3(C)C)cc2F)c1OP(=O)([O-])[O-].[Na+].[Na+].[Na+] | HPLC, saturated solution | simulated gastric fluid | 30 s | pH 1.2 |  |  | 240 µg/mL
COc1ccccc1-n1nnnc1SCC(=O)Nc1ccccc1SC |  | aqueous buffer |  | pH 7.4 |  |  | < 2.77 µg/mL
COC1=CC(c2ccc[nH]2)=N/C1=C\c1[nH]c(-c2ccccc2)cc1-c1ccccc1 |  | potassium phosphate buffer | 1.5 h | pH 7.4 | room temperature |  | < 3.13 µM
COC(=O)Nc1cc(C(=O)Nc2ccc(CN)cc2)cc2ccc(C(=N)N)cc12 |  | aqueous buffer |  | pH 7.4 |  |  | 46.1 µg/mL
c1cncc(-c2cccc(Nc3nccc(NC4CCCC4)n3)c2)c1 |  | citrate phosphate-buffered saline | 18 h | pH 7.4 |  | 1% DMSO | 2 ± 0.2 µM
CN(Cc1ccc(C(C)(C)C)cc1)Cc1cccc2ccccc12 |  | PBS | 2 h | pH 7.4 | 25 °C |  | 10 µM
O=c1[nH]ncc(NN=Cc2cn(-c3ccccc3)nc2-c2ccccc2)c1Cl |  | cytotoxicity assay conditions |  |  |  |  | ≤ 5 µM
CCOC(=O)c1cnc(Nc2nc3ccccc3o2)nc1CN1CCN(c2ccccc2)CC1 |  | aqueous buffer |  | pH 7.4 |  |  | < 1.64 µg/mL
Cc1ccc([C@@H]2COC[C@H](c3ccc(C(C)(C)C)cc3)N2)cc1 | shake-flask, LC-HRMS | aqueous buffer | 16 h | pH 6.8 |  |  | < 4 µM
CC(C)(C)c1ccc(CN2CCN(C(c3ccccc3)c3ccc(Cl)cc3)CC2)cc1 (centres unmarked) |  | PBS |  | pH 7.4 | 25 °C | 2% DMSO | 3 µM

For quick reference, copied from above:
Compound | technique | matrix | time | pH | temperature | setting | solubility
CC(C)(C)c1ccc(CN2CCN(C(c3ccccc3)c3ccc(Cl)cc3)CC2)cc1 (centres unmarked) |  | PBS |  | pH 7.4 | 25 °C | 2% DMSO | 3 µM
O=c1[nH]ncc(NN=Cc2cn(-c3ccccc3)nc2-c2ccccc2)c1Cl |  | cytotoxicity assay conditions |  |  |  |  | ≤ 5 µM
CC1(C)OC[C@H](C2CCCCC2)N[C@@H]1c1ccc(Cl)c(Cl)c1 | shake-flask, LC-HRMS | aqueous buffer | 16 h | pH 6.8 |  |  | < 4 µM
COc1cc(OC)c2c(=O)c(OC)c(-c3ccc(OC)c(OC)c3)oc2c1 | HPLC | ethanol:butylene glycol 75:25 |  |  |  |  | 13260 ± 56 ppm
Nc1nc2c(ncn2COCCO)c(=O)[nH]1 |  | methanol + water | 24 h |  | 298.2 K | methanol mass fraction 0.9 | 1100 µg/mL
